Experimental data collected from several papers.
Each line is one published result; not all experiments were run side by side. Several values in a cell are separate wells, animals, samples, runs or records. Numbers after ± are the reported error.

COc1cccc(-c2n[nH]c(SCc3ccccn3)n2)c1OC — revertant colonies per plate (Salmonella typhimurium; Ames test, plate incorporation; TA1537; 0.50 mg/plate, without S9): 10
Cc1c(Cl)c(=O)oc2cc(OCCCC[Se]C#N)ccc12 — embryonic lethality (Caenorhabditis elegans; N2 Bristol, NGM with E. coli OP50; 10 µM, 24 h): 1.94%
Cc1cc(C(=O)NC(C)(C)COc2cccc3c2C(N)=NS(=O)(=O)N3)cc(C)n1 — revertant ratio (Salmonella typhimurium; Ames test, initial; TA1535; 1500 µg/plate; baseline: solvent control): 1
CC(C)C[C@H](NC(=O)[C@H](Cc1c[nH]cn1)NC(=O)[C@H](Cc1c[nH]cn1)NC(=O)[C@H](Cc1ccc(O)cc1)NC(=O)[C@@H](N)CS)C(=O)N[C@H](C(=O)N[C@@H](CC(C)C)C(=O)N[C@H](C(=O)N[C@H](C(=O)NCC(=O)NCC(=O)N[C@@H](CO)C(=O)O)C(C)C)[C@@H](C)O)C(C)C — body weight (Epstein-Barr virus; B-NDG humanized mouse, EBV-infected; 20 mg/kg, day 42): 23 g and 21.9 g and 21.6 g
CC(=O)N1CCC(C(=O)N2CCN3C(=O)c4cc(-c5ccccc5)ccc4NC(=O)C3C2)CC1 (stereo not shown) — fold increase in revertants (Salmonella typhimurium; TA98; 5.0 µg/plate, together with: rat liver S9; baseline: vehicle): 0.8
CN(CC(C)(C)C)N=O — revertant colonies per plate (Escherichia coli; mutagenicity, Ames plate incorporation; WP2 uvrA pKM101; 2500 µg/plate, without S9, methanol): 195 ± 18
[Cl-].[Cl-].[Pt+2].[Ru+2].c1ccc(-c2nccnc2-c2ccccn2)nc1.c1cnc2c(c1)ccc1cccnc12.c1cnc2c(c1)ccc1cccnc12 — hatching rate (Danio rerio; embryos; 15 µM, 48 h): 40 ± 4.1%
CN(N=O)c1ccc(F)cc1 — revertant colonies per plate (Escherichia coli; mutagenicity, Ames plate incorporation; WP2 uvrA pKM101; 5000 µg/plate, 3 d, without S9, methanol): 37.3
Fc1ccc(C2=CCNCC2)cc1 — induction factor (Salmonella typhimurium; genotoxicity, SOS/umu test; TA1535/pSK1002; 0.004 mg/mL, 4 h, with S9, full range): 1.1
CNC(=O)c1c(N(C)N=O)ncn1C — revertant colonies per plate (Escherichia coli; mutagenicity, Ames plate incorporation; WP2 uvrA pKM101; 5000 µg/plate, without S9, methanol): 132 ± 4
O=[N+]([O-])c1ccc(N2CCC(NCCC(O)c3ccc(F)c4ccccc34)CC2)c(C(F)(F)F)c1 (stereo not shown) — induction factor (Salmonella typhimurium; SOS response, SOS/umu test; TA1535/pSK1002, TGA medium; 3.05e-05 mg/mL, 4 h, together with: 10% rat liver S9; baseline: untreated): 1.1
[Cl-].[Cl-].[Pt+2].[Ru+2].c1ccc(-c2nc3ccccc3nc2-c2ccccn2)nc1.c1cnc2c(c1)ccc1cccnc12.c1cnc2c(c1)ccc1cccnc12 — survival rate (Danio rerio; embryos; 60 µM, 0 h): 100%
O=[N+]([O-])c1ccc(N2CCN(CCC(O)c3ccc(F)cc3)CC2)c(C(F)(F)F)c1 (stereo not shown) — induction factor (Salmonella typhimurium; genotoxicity, SOS/umu test; TA1535/pSK1002; 0.004 mg/mL, 4 h, without S9, full range): 1.1
O=NN1CCN(C2CCCC2)CC1 — revertant colonies per plate (Escherichia coli; mutagenicity, Ames plate incorporation; WP2 uvrA pKM101; 2500 µg/plate, 3 d, without S9, methanol): 90 ± 16
OC(CCN1CC=C(c2ccc(F)cc2)CC1)c1ccc(F)c2ccccc12 (stereo not shown) — survival (Salmonella typhimurium; SOS/umu test; TA1535/pSK1002, TGA medium; 0.000488 mg/mL, 4 h, together with: 10% rat liver S9): 114%
CC(C)N(C)N=O — revertant colonies per plate (Escherichia coli; mutagenicity, Ames plate incorporation; WP2 uvrA pKM101; 1500 µg/plate, 3 d, without S9, methanol): 141 ± 12

Some of these lines once more:
[Cl-].[Cl-].[Pt+2].[Ru+2].c1ccc(-c2nccnc2-c2ccccn2)nc1.c1cnc2c(c1)ccc1cccnc12.c1cnc2c(c1)ccc1cccnc12 — hatching rate (Danio rerio; embryos; 15 µM, 48 h): 40 ± 4.1%
CN(N=O)c1ccc(F)cc1 — revertant colonies per plate (Escherichia coli; mutagenicity, Ames plate incorporation; WP2 uvrA pKM101; 5000 µg/plate, 3 d, without S9, methanol): 37.3
